Experimental data pooled from the literature.
Lines come from different studies, so protocols differ. Numbers after ± are the reported error.
BACE2: Beta-secretase 2 (BACE2, Homo sapiens, UniProt Q9Y5Z0)
UniProt Q9Y5Z0, sequence (whole entry, looked up): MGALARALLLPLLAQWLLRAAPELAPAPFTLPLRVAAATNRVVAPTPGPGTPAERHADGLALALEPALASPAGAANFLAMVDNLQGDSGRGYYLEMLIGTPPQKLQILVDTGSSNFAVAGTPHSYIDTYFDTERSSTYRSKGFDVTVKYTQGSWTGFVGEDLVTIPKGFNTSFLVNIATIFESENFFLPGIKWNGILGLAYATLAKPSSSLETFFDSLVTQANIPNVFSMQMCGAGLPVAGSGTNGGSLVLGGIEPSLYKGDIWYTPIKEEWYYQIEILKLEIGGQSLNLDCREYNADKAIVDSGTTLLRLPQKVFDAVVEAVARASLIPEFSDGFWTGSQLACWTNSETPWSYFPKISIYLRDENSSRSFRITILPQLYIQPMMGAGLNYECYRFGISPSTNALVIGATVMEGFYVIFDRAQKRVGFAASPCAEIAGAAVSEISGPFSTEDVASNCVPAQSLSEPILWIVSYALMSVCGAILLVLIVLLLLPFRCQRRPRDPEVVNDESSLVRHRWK
Hypoxanthine-guanine-xanthine phosphoribosyltransferase: Hypoxanthine-guanine-xanthine phosphoribosyltransferase (Plasmodium falciparum, UniProt P20035)
UniProt P20035, sequence (whole entry, looked up): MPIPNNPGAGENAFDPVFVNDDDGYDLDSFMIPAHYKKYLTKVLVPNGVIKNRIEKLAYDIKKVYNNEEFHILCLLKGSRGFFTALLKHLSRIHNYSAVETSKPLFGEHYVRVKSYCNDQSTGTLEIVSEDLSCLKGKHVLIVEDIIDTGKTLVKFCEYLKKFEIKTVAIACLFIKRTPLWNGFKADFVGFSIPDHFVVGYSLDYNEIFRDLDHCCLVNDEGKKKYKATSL
FUT9: 4-galactosyl-N-acetylglucosaminide 3-alpha-L-fucosyltransferase 9 (FUT9, Homo sapiens, UniProt Q9Y231)
UniProt Q9Y231, sequence (whole entry, looked up): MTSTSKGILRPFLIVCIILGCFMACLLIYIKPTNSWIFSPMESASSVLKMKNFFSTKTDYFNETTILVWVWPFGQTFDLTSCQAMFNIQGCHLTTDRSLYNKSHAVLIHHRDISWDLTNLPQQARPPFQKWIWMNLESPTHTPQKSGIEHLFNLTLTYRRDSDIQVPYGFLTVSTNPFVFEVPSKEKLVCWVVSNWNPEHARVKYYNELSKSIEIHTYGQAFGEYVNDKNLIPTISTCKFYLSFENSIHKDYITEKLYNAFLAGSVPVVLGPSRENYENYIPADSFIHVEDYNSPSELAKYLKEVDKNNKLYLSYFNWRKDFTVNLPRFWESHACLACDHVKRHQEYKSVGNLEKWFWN
TACR1: Substance-P receptor (TACR1, Homo sapiens, UniProt P25103)
UniProt P25103, sequence (whole entry, looked up): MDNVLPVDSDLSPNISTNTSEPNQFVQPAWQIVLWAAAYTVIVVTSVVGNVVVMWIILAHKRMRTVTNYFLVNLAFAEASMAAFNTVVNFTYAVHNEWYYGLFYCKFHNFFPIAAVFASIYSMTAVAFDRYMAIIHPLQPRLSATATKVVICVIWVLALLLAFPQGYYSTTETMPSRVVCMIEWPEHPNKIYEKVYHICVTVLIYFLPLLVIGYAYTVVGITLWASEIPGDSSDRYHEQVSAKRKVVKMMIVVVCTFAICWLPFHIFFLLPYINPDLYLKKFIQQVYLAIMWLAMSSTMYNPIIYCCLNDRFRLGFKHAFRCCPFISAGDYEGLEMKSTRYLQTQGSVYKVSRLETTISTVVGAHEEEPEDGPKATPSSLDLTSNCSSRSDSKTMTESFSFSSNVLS
Beta-lactamase CTX-M-14: Beta-lactamase CTX-M-14 (Escherichia coli, UniProt Q9L5C7)
Htr1a: 5-hydroxytryptamine receptor 1A (Htr1a, Rattus norvegicus, UniProt P19327)
UniProt P19327, sequence (whole entry, looked up): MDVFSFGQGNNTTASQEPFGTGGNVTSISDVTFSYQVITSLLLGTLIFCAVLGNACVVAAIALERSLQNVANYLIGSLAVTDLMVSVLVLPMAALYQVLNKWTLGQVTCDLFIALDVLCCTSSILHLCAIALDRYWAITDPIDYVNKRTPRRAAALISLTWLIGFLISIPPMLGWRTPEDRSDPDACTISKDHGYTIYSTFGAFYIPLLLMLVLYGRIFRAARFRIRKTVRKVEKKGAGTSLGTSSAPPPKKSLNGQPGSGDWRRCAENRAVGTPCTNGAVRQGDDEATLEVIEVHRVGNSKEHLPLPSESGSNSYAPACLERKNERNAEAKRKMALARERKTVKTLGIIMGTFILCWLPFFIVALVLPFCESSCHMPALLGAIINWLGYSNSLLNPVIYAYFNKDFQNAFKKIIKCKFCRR
CHRM4: Muscarinic acetylcholine receptor M4 (CHRM4, Homo sapiens, UniProt P08173)
UniProt P08173, sequence (whole entry, looked up): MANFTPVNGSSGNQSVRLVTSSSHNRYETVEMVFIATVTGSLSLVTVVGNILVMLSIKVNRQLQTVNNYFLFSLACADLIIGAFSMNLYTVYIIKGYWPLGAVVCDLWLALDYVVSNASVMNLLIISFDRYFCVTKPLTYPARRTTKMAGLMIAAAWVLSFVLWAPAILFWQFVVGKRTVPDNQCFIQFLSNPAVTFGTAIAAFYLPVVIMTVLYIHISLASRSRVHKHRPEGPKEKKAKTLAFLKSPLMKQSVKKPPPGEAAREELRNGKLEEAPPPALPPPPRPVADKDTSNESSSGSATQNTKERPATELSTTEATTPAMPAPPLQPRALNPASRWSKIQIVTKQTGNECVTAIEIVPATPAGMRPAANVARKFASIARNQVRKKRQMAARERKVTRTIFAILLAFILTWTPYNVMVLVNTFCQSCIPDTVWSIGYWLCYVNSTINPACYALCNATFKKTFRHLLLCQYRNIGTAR
SLC10A1: Hepatic sodium/bile acid cotransporter (SLC10A1, Homo sapiens, UniProt Q14973)
UniProt Q14973, sequence (whole entry, looked up): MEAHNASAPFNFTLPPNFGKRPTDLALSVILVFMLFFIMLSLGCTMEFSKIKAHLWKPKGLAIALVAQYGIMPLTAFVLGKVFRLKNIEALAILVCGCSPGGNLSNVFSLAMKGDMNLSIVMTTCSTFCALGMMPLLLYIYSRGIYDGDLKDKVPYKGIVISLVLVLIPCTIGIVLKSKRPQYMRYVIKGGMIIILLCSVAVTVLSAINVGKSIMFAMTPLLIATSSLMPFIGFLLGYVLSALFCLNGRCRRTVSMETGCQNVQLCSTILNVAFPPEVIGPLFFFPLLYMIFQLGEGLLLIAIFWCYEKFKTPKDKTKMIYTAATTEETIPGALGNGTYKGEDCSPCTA
MAPK8: Mitogen-activated protein kinase 8 (MAPK8, Homo sapiens, UniProt P45983)
UniProt P45983, sequence (whole entry, looked up): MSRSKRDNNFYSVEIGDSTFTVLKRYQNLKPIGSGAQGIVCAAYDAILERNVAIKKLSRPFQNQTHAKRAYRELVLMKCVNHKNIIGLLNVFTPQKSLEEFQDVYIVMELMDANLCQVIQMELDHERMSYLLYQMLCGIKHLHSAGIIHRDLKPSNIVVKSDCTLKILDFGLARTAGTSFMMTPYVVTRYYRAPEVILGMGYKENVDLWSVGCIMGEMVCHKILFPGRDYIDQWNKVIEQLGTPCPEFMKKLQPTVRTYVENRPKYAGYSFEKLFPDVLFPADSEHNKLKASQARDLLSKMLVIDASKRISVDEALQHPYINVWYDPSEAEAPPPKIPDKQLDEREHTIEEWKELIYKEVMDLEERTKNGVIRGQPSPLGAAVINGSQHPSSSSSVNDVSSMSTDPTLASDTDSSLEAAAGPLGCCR
CASP1: Caspase-1 (CASP1, Homo sapiens, UniProt P29466)
UniProt Q9NR56, sequence (whole entry, looked up): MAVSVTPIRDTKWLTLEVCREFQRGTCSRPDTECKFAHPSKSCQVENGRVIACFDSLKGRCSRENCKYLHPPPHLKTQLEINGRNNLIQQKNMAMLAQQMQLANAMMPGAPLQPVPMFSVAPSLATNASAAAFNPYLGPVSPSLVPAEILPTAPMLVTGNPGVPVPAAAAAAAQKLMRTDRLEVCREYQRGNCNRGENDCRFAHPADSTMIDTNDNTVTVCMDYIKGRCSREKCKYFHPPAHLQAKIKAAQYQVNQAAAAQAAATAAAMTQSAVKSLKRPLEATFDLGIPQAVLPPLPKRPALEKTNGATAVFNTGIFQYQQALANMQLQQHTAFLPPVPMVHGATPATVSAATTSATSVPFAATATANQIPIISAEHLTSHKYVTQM
UniProt P29466, sequence (whole entry, looked up): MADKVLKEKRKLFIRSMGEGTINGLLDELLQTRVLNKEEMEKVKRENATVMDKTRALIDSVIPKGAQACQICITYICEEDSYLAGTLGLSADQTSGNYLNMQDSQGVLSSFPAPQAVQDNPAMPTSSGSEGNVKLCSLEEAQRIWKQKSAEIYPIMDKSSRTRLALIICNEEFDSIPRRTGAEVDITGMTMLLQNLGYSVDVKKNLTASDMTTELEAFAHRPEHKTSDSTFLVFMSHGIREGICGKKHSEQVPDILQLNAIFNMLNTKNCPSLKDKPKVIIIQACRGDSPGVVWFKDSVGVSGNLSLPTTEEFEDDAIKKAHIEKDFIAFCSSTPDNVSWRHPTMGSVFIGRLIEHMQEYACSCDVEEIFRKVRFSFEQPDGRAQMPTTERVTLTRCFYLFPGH
UniProt Q13153, sequence (whole entry, looked up): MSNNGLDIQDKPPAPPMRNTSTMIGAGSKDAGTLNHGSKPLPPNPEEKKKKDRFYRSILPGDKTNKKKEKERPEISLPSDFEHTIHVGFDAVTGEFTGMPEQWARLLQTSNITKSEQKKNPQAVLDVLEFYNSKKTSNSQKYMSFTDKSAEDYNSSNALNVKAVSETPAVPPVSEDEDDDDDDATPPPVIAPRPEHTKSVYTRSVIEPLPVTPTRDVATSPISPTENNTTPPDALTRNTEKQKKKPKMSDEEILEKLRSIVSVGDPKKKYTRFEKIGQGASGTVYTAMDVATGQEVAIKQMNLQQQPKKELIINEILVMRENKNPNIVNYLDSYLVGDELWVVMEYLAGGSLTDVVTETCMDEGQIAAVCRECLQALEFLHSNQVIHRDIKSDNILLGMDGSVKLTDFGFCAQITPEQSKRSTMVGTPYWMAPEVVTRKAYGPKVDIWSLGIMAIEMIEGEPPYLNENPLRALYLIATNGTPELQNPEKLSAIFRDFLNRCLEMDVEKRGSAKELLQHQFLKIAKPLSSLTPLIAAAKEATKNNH
UniProt P51993, sequence (whole entry, looked up): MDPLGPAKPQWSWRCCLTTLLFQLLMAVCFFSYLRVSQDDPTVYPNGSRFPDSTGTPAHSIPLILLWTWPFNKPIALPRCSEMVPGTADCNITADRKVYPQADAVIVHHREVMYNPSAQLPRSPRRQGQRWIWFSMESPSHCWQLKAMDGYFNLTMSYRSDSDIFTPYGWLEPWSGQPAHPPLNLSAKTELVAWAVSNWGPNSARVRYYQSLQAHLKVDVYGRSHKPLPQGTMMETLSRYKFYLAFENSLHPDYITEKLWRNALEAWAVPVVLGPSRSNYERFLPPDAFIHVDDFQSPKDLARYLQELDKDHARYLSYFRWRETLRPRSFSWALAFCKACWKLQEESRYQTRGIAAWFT

Cc1cc(C(=O)N[C@@H](Cc2ccccc2)[C@H](O)CN[C@H](C(=O)NCC(C)C)[C@H](C)O)cc(C(=O)N[C@H](C)c2ccccc2)c1 — Ki (BACE2): 183 ± 22.7 nM
O=c1[nH]cnc2c(CN[C@H](CO)CCP(=O)(O)O)c[nH]c12 — Ki (Hypoxanthine-guanine-xanthine phosphoribosyltransferase; enzyme activity, inhibitor; pH 7.4): 0.65 nM
C[C@@H]1O[C@H](OP(=O)(O)OP(=O)(O)OC[C@H]2O[C@@H](n3cnc4c(=O)[nH]c(N)nc43)[C@H](O)[C@@H]2O)[C@@H](F)[C@H](O)[C@@H]1O — Ki (FUT9; enzyme activity, inhibitor): 27800 nM
Cc1ccccc1-c1cc(N2CCN(C(=O)[C@@H](N)CCCNC(=N)N)CC2)ccc1N(C)C(=O)C(C)(C)c1cc(C(F)(F)F)cc(C(F)(F)F)c1 — Ki (TACR1; binding): 3.63 nM
O=C(Nc1cccc(-c2nn[nH]n2)c1)c1cc(-c2cccnc2)cc(C(F)(F)F)c1 — Ki (Beta-lactamase CTX-M-14; enzyme activity, inhibitor, absorbance; pH 7): 29300 nM
Fc1cc(OCCCN2CCN(c3cccc4sccc34)CC2)ccc1CN1CCOCC1 — Ki (Htr1a; cell-free assay, radioligand): 11.7 nM
CCCCCCOc1ccc(C(=O)OCC[N+]2(C)CC=CCC2)cc1 (centres unmarked) — Ki (CHRM4; ligand displacement, radioligand; cell membranes): 437 nM
CNc1ccccc1C(=O)O[C@H]1[C@@H](O)[C@H](n2ccc(N)nc2=O)O[C@@H]1COP(=O)(O)OP(=O)(O)O — Ki (Adcy2/ADCY5, C1/C2 domains (Rattus norvegicus, UniProt P26769+P30803); adenylyl cyclase activity, inhibitor, purified enzyme; with: 10 mM MnCl2, 100 µM forskolin, no Gsα-GTPγS): 1500 ± 75 nM
Nc1nc2c(ncn2[C@@H]2O[C@H](COP(=O)(O)OP(=O)(O)O[C@H]3O[C@@H](CNC(=O)CCCc4ccccc4)[C@@H](O)[C@@H](O)[C@@H]3F)[C@@H](O)[C@H]2O)c(=O)[nH]1 — Ki (FUT9; enzyme activity, inhibitor): 14200 nM
CNC1CCC(N(Cc2ccc(OC)c(-c3ccc(C#N)cc3)c2)C(=O)c2sc3ccccc3c2Cl)CC1 (centres unmarked) — Ki (Protein smoothened (Smo, Mus musculus, UniProt P56726); ligand displacement, radioligand; cell membranes): 22 nM
C[C@H](CCC(=O)O)[C@H]1CC[C@H]2[C@@H]3[C@H](O)C[C@H]4C[C@H](OC(=O)CCC(=O)O)CC[C@]4(C)[C@H]3CC[C@]12C — Ki (SLC10A1; taurocholate uptake, inhibitor; HEK293 expressing SLC10A1): < 25000 nM
O=C(Nc1cccc(-c2nn[nH]n2)c1)c1cc(-n2ccnc2)cc(C(F)(F)F)c1 — Ki (Beta-lactamase CTX-M-14; enzyme activity, inhibitor, absorbance; pH 7): 30500 nM
CCOC(=O)C1(C)C=C(C(=O)OC)C(=O)CC1 (centres unmarked) — Ki (MAPK8; ligand displacement, FP): > 200000 nM
c1cc(N2CCN(CCCOc3ccc(CN4CCCCC4)cc3)CC2)c2ccsc2c1 — Ki (Htr1a; cell-free assay, radioligand): 210 nM
CC(=O)N[C@H]1[C@H](Oc2ccccc2-c2cccc(C(=O)O)c2)O[C@H](CO)[C@H](O)[C@@H]1O — Ki (Adhesin FmlH, lectin domain (Escherichia coli, UniProt Q1RBS0); inhibitor, competitive bio-layer interferometry; UPEC UTI89; with: immobilized Ser-TF): ~90 nM
Nc1nc2c(ncn2[C@@H]2O[C@H](COP(=O)(O)OP(=O)(O)O[C@H]3O[C@@H](CNC(=O)Cc4ccccc4)[C@@H](O)[C@@H](O)[C@@H]3F)[C@@H](O)[C@H]2O)c(=O)[nH]1 — Ki (FUT9; enzyme activity, inhibitor): 10600 nM
C[C@H]1CN(C(=O)c2cn(-c3ccnc(N)n3)c3cc(C#CC4(O)CCCCC4)ccc23)CCN1 — Ki (PAK1 (Homo sapiens, UniProt Q13153); enzyme activity, inhibitor, FRET): 6020 nM
O=c1[nH]cnc2c(CNCCCP(=O)(O)O)c[nH]c12 — Ki (Hypoxanthine-guanine-xanthine phosphoribosyltransferase; enzyme activity, inhibitor; pH 7.4): 61 nM
COc1cccc(/C=N/NC(=O)CSc2nc3ccccc3c(=O)n2CCc2ccc(S(N)(=O)=O)cc2)c1 — Ki (CA12 (Homo sapiens, UniProt O43570); enzyme activity, inhibitor, stopped-flow): 59.2 nM
Clc1cc(OCCCN2CCN(c3cccc4sccc34)CC2)ccc1CN1CCCCC1 — Ki (Htr1a; cell-free assay, radioligand): 200 nM
Nc1nc2c(ncn2[C@@H]2O[C@H](COP(=O)(O)OP(=O)(O)O[C@H]3O[C@@H](CNC(=O)CCc4ccccc4)[C@@H](O)[C@@H](O)[C@@H]3F)[C@@H](O)[C@H]2O)c(=O)[nH]1 — Ki (FUT6 (Homo sapiens, UniProt P51993); enzyme activity, inhibitor): 3700 nM
CN(C)CCNC(=O)c1cccc2c(NCCCCc3c(N)nc(N)nc3N)c3ccccc3nc12 — Ki (Muscleblind-like protein 1, with cTNT RNA (Homo sapiens, UniProt Q9NR56); MBNL1-RNA binding, gel mobility shift; no tRNA, with: cTNT RNA, 15 nM MBNL1): > 17000 nM
CC[C@H](C)[C@H](NC(C)=O)C(=O)N[C@H](C(=O)N[C@H](C(=O)N[C@@H](CCCCN)C(=O)N[C@H](C=O)CC(=O)O)C(C)C)[C@@H](C)O — Ki (CASP1; enzyme activity, inhibitor, fluorescence; pH 7): 447 nM
Cc1cc(CN2CCOCC2)ccc1OCCCN1CCN(c2cccc3sccc23)CC1 — Ki (Htr1a; cell-free assay, radioligand): 14.6 nM
CN1CCN(CCCCC2CCN(CC(=O)N3c4ccccc4NC(=O)c4ccccc43)CC2)CC(N)C1 (centres unmarked) — Ki (CHRM4; ligand displacement, radioligand): 10 nM
COC(=O)C1(C)C=C(C(=O)O)C(=O)CC1 (centres unmarked) — Ki (MAPK8; ligand displacement, FP): > 200000 nM
CC1=N[C@@H]2[C@@H](O)[C@H](O)[C@@H](COS(=O)(=O)O)O[C@@H]2S1 — Ki (protein SP_0475 (Streptococcus pneumoniae, UniProt A0A0H2UNN2); inhibitor): 69 ± 7 nM
CC[C@H](C)[C@H](NC(C)=O)C(=O)N[C@H](C(=O)N[C@H](C(=O)N[C@@H](CCCCNC(C)=O)C(=O)N[C@H](C=O)CC(=O)O)C(C)C)[C@@H](C)O — Ki (CASP1; enzyme activity, inhibitor, fluorescence; pH 7): 182 nM
CCC[C@H](O)[C@H](NC[C@@H](O)[C@H](Cc1ccccc1)NC(=O)c1cccc(C(=O)N(C)[C@H](C)c2ccccc2)c1)C(=O)NCC(C)C — Ki (BACE2): 0.031 ± 0.021 nM
CCC(=O)NCc1cc(C(=O)NCCCC(=O)NCCCCCOc2nsnc2C2=CCCN(C)C2)cc(C(=O)NCCN2CCN(CCCCC3CCN(CC(=O)N4c5ccccc5NC(=O)c5ccccc54)CC3)CC2)c1 — Ki (CHRM4; ligand displacement, radioligand): 1.35 nM
Cc1cc(OCCCN2CCN(c3cccc4sccc34)CC2)ccc1CN1CCCCC1 — Ki (Htr1a; cell-free assay, radioligand): 394 nM
O=C(Nc1cccc(-c2nn[nH]n2)c1)c1cc(-c2cc[nH]c2)cc(C(F)(F)F)c1 — Ki (Beta-lactamase CTX-M-14; enzyme activity, inhibitor, absorbance; pH 7): 10600 nM
COc1cc(/C=C/c2cc(O)cc(O)c2)ccc1O — Ki (XDH (Bos taurus, UniProt P80457); uric acid formation, inhibitor; pH 10.0, 25 °C, with: xanthine): 96000 ± 2000 nM
C[C@H](CCC(=O)NCC(=O)O)[C@H]1CC[C@H]2[C@@H]3C(=O)C[C@H]4C[C@H](O)CC[C@]4(C)[C@H]3CC[C@]12C — Ki (SLC10A1; transporter uptake, inhibitor, radiometric): 4210 nM
COc1ccc2nc3cc(Cl)ccc3c(NCCCCc3c(N)nc(N)nc3N)c2c1 — Ki (Muscleblind-like protein 1, with (CCUG)6 RNA (Homo sapiens, UniProt Q9NR56); MBNL1-RNA binding, gel mobility shift; 100 nM tRNA, with: (CCUG)6 RNA, 350 nM MBNL1): 3400 ± 900 nM
O=C1Nc2ccccc2N(C(=O)CN2CCC(CCCCN3CCC(N4CCC(n5c(=O)[nH]c6ccccc65)CC4)CC3)CC2)c2ccccc21 — Ki (CHRM4; ligand displacement, radioligand): 11.2 nM
N=C(N)NCCC[C@H](NC(=O)[C@@H](N)Cc1ccccc1)C(=O)NCCOCCOCC(=O)NCC(=O)N1CCCC1 — Ki (FAP (Homo sapiens, UniProt Q12884); enzyme activity, inhibitor, fluorescence; pH 7.5): 67700 nM
Cc1ccccc1-c1cc(N2CCCCC2)ccc1N(C)C(=O)C(C)(C)c1cc(C(F)(F)F)cc(C(F)(F)F)c1 — Ki (TACR1; cell-free assay; pH 6): 36 nM

Excerpt of the above:
CC1=N[C@@H]2[C@@H](O)[C@H](O)[C@@H](COS(=O)(=O)O)O[C@@H]2S1 — Ki (protein SP_0475 (Streptococcus pneumoniae, UniProt A0A0H2UNN2); inhibitor): 69 ± 7 nM
O=C1Nc2ccccc2N(C(=O)CN2CCC(CCCCN3CCC(N4CCC(n5c(=O)[nH]c6ccccc65)CC4)CC3)CC2)c2ccccc21 — Ki (CHRM4; ligand displacement, radioligand): 11.2 nM
Cc1cc(C(=O)N[C@@H](Cc2ccccc2)[C@H](O)CN[C@H](C(=O)NCC(C)C)[C@H](C)O)cc(C(=O)N[C@H](C)c2ccccc2)c1 — Ki (BACE2): 183 ± 22.7 nM
